Assay results of several laboratories.
A part holds a random share of what one study measured. Changes are numbered by the printed parent chain.

Block 1
Target: PABPC1L2, full length, GST fusion (mouse, UniProt A0ABA7IW68)
Technique: RNAcompete
Form: RNA
Sample: in vitro
Tested at: 20 nM
Setting: 7-mer, probes averaged, single round
Reference: mean of 7-mers
Direction: higher = stronger binding
`UACUUAU` has a 7-mer Z-score of -0.182.
With `AGUUGGU` the 7-mer Z-score was -0.155.
The 7-mer Z-score of `AUUGCGG` is reported as 0.117.
With `CUCGGAU` the 7-mer Z-score was -0.202.
The 7-mer Z-score of `CGUGAAU` is reported as -0.238.
The 7-mer Z-score of `UGACACG` is reported as -0.0935.
The 7-mer Z-score of `UUCGUUA` is reported as -0.367.
The 7-mer Z-score of `CGAACGA` is reported as -0.0446.
With `AUACCAG` the 7-mer Z-score was -0.0174.
The 7-mer Z-score of `GACAGUA` is reported as 0.0551.
For `UCCUACA`, the 7-mer Z-score was -0.336.
For `CCAGUUC`, the 7-mer Z-score was -0.364.
With `GAUGGGG` the 7-mer Z-score was 0.515.
With `CCAAAUA` the 7-mer Z-score was 0.514.
For `AGGAUUC`, the 7-mer Z-score was -0.139.
`CACAGGC` gave a 7-mer Z-score of 0.108.
`CUCUCAG` has a 7-mer Z-score of -0.4.

Block 2
Target: Max dimerization protein 1, bHLH-zipper, MAX partner unstated (MXD1, Homo sapiens, UniProt Q05195, residues 56-136)
Technique: protein-binding microarray
Form: double-stranded DNA, one strand shown
Sample: in vitro
Tested at: not given
Setting: k-mer, scored over probes, only values ≥0.25
Direction: higher = stronger binding
Target sequence (chain): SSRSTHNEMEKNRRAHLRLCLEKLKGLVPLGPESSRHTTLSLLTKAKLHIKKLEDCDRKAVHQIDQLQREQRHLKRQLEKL
For `AGGGAGGG`, the E-score was 0.275.
The E-score of `CTGCCCCC` is reported as 0.26.
`CCCCAAGC` has an E-score of 0.257.
With `GCATGTTA` the E-score was 0.351.
For `GCATCCGC`, the E-score was 0.254.
`CGTGCACG` gave an E-score of 0.418.
For `CCTCGAGG`, the E-score was 0.318.
`CCTCGCAC` gave an E-score of 0.306.
For `CCACGTGG`, the E-score was 0.497.
With `ACCACGTG` the E-score was 0.49.
For `AGCATGTA`, the E-score was 0.337.
For `GCATGGAA`, the E-score was 0.414.
`CATGTGCG` has an E-score of 0.469.
`CGCGCACG` gave an E-score of 0.349.
The E-score of `TGCCCCCA` is reported as 0.303.

Block 3
Target: Interferon regulatory factor 3, full length, phosphomimetic (IRF3, Homo sapiens, UniProt Q14653, residues 1-427, S386D/S396D/S398D/S402D/T404D/S405D)
UniProt Q14653, sequence (whole entry, unmodified, looked up): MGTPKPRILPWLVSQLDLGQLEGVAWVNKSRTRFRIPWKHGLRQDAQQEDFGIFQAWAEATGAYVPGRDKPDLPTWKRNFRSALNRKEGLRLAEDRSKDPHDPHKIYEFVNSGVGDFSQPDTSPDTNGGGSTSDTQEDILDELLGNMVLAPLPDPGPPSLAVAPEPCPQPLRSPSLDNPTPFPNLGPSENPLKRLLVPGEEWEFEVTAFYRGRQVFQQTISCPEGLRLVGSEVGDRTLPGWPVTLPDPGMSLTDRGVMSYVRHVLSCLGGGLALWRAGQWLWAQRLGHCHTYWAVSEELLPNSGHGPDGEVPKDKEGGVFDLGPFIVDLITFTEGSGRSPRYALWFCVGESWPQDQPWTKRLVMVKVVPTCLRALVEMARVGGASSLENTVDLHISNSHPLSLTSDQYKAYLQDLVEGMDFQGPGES
Technique: protein-binding microarray
Form: double-stranded DNA, one strand shown
Sample: in vitro
Tested at: 2540 nM top
Setting: 60-bp whole probe
Together with: salmon DNA 0.4 mg/ml
Reference: random background probes
Direction: higher = stronger binding
All sequences stand within: GCCTAGCAC … GTCTTGATTCGCTTGACGCTGCTG
For `AATGACTCTATGAAGTAGTTGTGCTAG`, “fitted relative affinity” read -0.502 z-score.
For `TTAGCTTCCAGTTTCGATTAGTGCTAG`, “fitted relative affinity” read 4.52 z-score.
`GACGATATAAGTCTCGAGACGTGCTAG` — result for “fitted relative affinity”: -0.0605 z-score.
`TTAGGTTTCAGTCTCGATTAGTGCTAG` — result for “fitted relative affinity”: 5.16 z-score.
Under “fitted relative affinity”, `TTAGATTTCAGTATCGATTTGTGCTAG` is recorded as 3.5 z-score.
`GACGAACTGAGTCTGGAGACGTGCTAG`: “fitted relative affinity” -0.44 z-score.
`CCTATTATATATATCATAAGGTGCTAG` — result for “fitted relative affinity”: 1.89 z-score.
`TTAGGTGTCCTTTTCCTTTAGTGCTAG` — result for “fitted relative affinity”: 5.74 z-score.
For `GACGGACTGGGTTTCCGGACGTGCTAG`, “fitted relative affinity” read 1.13 z-score.
`TTAGGACTCCTTTTCCTTTAGTGCTAG`: “fitted relative affinity” 3.08 z-score.
Under “fitted relative affinity”, `TTAGGTATCGTTATCGGTTAGTGCTAG` is recorded as 3.11 z-score.
`TTAGGTTTCGGGTATGGGTTAGTGCTA` — result for “fitted relative affinity”: 4.05 z-score.
Under “fitted relative affinity”, `GACGGACTGGACGCTGGGGACGTGCTA` is recorded as -0.763 z-score.
`GACGAACTGGACTTTCGGGACGTGCTA` — result for “fitted relative affinity”: 0.315 z-score.
For `GACGGTTTCGACACGGGGGACGTGCTA`, “fitted relative affinity” read 2.81 z-score.
Under “fitted relative affinity”, `GACGGACTGTACACTGGGGACGTGCTA` is recorded as -0.53 z-score.
Under “fitted relative affinity”, `TCAATTTTTACTTTCTGACTGTGCTAG` is recorded as 2.31 z-score.
Under “fitted relative affinity”, `TGCTCCTTATGGCTAAAGGGGTGCTAG` is recorded as 1.16 z-score.
For `TCAGTTACCCATCTCAAACTGTGCTAG`, “fitted relative affinity” read 4.92 z-score.
`TTAGAACTGGGGACTGGAGTAGTGCTA` — result for “fitted relative affinity”: -0.924 z-score.
Under “fitted relative affinity”, `GACGGACTGGGACTGGGGAAGTGCTAG` is recorded as -0.942 z-score.
For `GACGATTTCGGGTTGCGAGACGTGCTA`, “fitted relative affinity” read 1.89 z-score.
`TTAGGTATCGGGTATCGGGTAGTGCTA` — result for “fitted relative affinity”: 1.4 z-score.
`TGAGGTATCGGTATCGGTTAGTGCTAG` — result for “fitted relative affinity”: 5.18 z-score.

Block 4
Target: CCNA2, cyclin fold, Cln2 fusion (human)
Technique: yeast growth competition, sequencing
Sample: yeast
Setting: strong parent motif
Reference: not given
Direction: higher = stronger binding
Starting sequence: WEE1 docking peptide (human); HKTFRKLRLFDTP
For `K2V`, “normalised enrichment score” read 0.534.
`R8L`: “normalised enrichment score” 1.39.
`T12V` — result for “normalised enrichment score”: 1.65.
Under “normalised enrichment score”, `D11Q` is recorded as 3.2.
`T12M` — result for “normalised enrichment score”: 2.01.
Under “normalised enrichment score”, `R8Q` is recorded as 2.2.
`H1K` — result for “normalised enrichment score”: 1.89.
`R5E` — result for “normalised enrichment score”: 1.71.
Under “normalised enrichment score”, `P13Q` is recorded as 0.712.
Under “normalised enrichment score”, `K2W` is recorded as 1.88.
`L7D` — result for “normalised enrichment score”: 0.268.
Under “normalised enrichment score”, `H1Y` is recorded as 1.24.
For `K2S`, “normalised enrichment score” read 1.26.
`K6R` — result for “normalised enrichment score”: 1.69.
`P13V` — result for “normalised enrichment score”: 2.1.

Block 5
Target: Histone acetyltransferase KAT6A, winged helix 1, GST fusion (KAT6A, Homo sapiens, UniProt Q92794, residues 1-85)
Technique: protein binding microarray
Form: double-stranded DNA, one strand shown
Sample: in vitro
Tested at: not given
Setting: 8-mer, flanks averaged, mean of 2 arrays, mostly near background
Reference: not given
Direction: higher = stronger binding
Target sequence (chain): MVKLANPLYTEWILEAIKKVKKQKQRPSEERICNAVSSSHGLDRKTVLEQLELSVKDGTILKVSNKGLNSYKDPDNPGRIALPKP
`CCGTACGC` gave an E-score of 0.45.
For `ACCCGATA`, the E-score was 0.104.
With `CGATCGAG` the E-score was 0.0932.
With `GCTCAATA` the E-score was -0.156.
`AAGATGCT` has an E-score of -0.111.
`CAAGTGAA` has an E-score of -0.183.
`CCGACTAG` gave an E-score of 0.078.
With `ACACAGCA` the E-score was -0.0874.
With `ACCTAGAG` the E-score was -0.0357.
For `CGAGCACC`, the E-score was -0.0432.
`ATAGTGAG` gave an E-score of -0.1.
The E-score of `ACGGAGTC` is reported as 0.0285.
The E-score of `CCCAAACC` is reported as -0.0683.
The E-score of `GTACGATA` is reported as -0.0775.
With `CGCCTGCA` the E-score was -0.0132.
`AGACAACC` has an E-score of -0.107.
The E-score of `AGATCGAA` is reported as -0.162.
For `ACAACGGA`, the E-score was 0.0728.
`GGGATGAC` has an E-score of -0.0101.
`AAGGCGTC` gave an E-score of 0.145.
`TTCTTAAA` gave an E-score of -0.0894.
With `GAGATCAA` the E-score was -0.0105.
With `CGCGGAAA` the E-score was 0.353.
For `CCCACCAA`, the E-score was -0.232.

Block 6
Target: ABI1, truncated, D143A, DHFR fusion (Arabidopsis thaliana)
Technique: DHFR PCA, deep sequencing
Sample: yeast
Setting: methotrexate growth selection, single substitutions
Together with: (+)-ABA 0.11 µM
Reference: wild-type fitted maximum
Direction: higher = stronger binding
Starting sequence: PYL1, truncated, DHFR fusion (Arabidopsis thaliana); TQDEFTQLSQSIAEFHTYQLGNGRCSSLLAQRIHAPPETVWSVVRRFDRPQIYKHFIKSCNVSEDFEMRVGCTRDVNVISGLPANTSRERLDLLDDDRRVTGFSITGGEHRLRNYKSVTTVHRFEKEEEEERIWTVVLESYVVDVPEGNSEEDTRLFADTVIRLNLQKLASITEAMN; partner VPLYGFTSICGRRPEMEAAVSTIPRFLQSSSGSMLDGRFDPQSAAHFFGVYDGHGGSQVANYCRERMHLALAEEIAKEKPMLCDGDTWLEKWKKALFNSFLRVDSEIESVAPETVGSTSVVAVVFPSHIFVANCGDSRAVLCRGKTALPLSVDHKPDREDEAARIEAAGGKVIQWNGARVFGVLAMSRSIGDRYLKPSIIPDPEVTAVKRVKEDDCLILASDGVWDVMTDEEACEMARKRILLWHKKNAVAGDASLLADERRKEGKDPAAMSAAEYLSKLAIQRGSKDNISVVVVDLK
`V142H`: “relative binding score” 3.7%.
`R90H`: “relative binding score” -4.91%.
For `E129D`, “relative binding score” read 55.4%.
`E67F`: “relative binding score” 3.14%.
`P36V`: “relative binding score” -4.62%.
Under “relative binding score”, `K126T` is recorded as 57.8%.
`S150E`: “relative binding score” 14.5%.
For `A158V`, “relative binding score” read 73.4%.
For `H16Y`, “relative binding score” read -9.44%.
For `V136E`, “relative binding score” read -7.14%.
`Y18S` — result for “relative binding score”: 3.46%.
Under “relative binding score”, `L166P` is recorded as 14.7%.
`L93N` — result for “relative binding score”: -7.02%.
`I12Q` — result for “relative binding score”: -4.1%.
Under “relative binding score”, `S26Q` is recorded as 4.38%.
For `F66Q`, “relative binding score” read 14.3%.

Block 7
Target: Sal-like protein 4, full length isoform B (SALL4, Homo sapiens, UniProt Q9UJQ4-2, residues 1-616)
Technique: universal PBM
Form: double-stranded DNA, one strand shown
Sample: in vitro
Tested at: not given
Setting: 8-mer, flanks averaged, mean of replicates
Direction: higher = stronger binding
Residues (chain): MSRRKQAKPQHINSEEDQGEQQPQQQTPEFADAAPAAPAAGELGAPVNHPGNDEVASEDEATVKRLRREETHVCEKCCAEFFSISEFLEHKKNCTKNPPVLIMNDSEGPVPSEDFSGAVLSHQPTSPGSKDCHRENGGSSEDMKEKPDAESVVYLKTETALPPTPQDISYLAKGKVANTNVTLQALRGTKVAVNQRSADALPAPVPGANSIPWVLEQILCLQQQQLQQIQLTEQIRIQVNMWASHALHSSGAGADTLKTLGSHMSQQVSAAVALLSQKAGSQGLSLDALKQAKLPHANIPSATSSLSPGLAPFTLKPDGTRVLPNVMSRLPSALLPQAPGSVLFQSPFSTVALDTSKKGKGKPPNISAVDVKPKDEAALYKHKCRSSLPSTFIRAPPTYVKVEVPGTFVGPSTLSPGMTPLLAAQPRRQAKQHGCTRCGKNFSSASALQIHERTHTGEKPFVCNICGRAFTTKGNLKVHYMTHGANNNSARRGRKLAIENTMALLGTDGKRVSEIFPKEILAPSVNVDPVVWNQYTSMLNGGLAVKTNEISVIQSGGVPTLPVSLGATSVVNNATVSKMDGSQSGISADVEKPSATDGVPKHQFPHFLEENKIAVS
`GAAGTGAC` gave an E-score of -0.0415.
For `CTGTCCCA`, the E-score was -0.0606.
`ACCTACGT` gave an E-score of -0.0419.
The E-score of `AACTTAAC` is reported as 0.184.
With `AAGCCTGC` the E-score was -0.22.
With `GTTCGACA` the E-score was -0.0107.
With `TAAATGGA` the E-score was 0.195.
With `AACTATCT` the E-score was 0.153.
The E-score of `CGAGTTCA` is reported as -0.0383.
For `GAGTCCCC`, the E-score was -0.276.
With `AATGGTGG` the E-score was -0.0512.
The E-score of `ACCAGGGG` is reported as -0.187.
For `TAGGAGAA`, the E-score was 0.0776.
`TTCTCAAA` gave an E-score of 0.268.
`CCATTTCG` gave an E-score of -0.0927.
The E-score of `CTGGTACC` is reported as -0.24.
